Experimental data of several laboratories.
± gives the spread as reported.
Organism: human cytomegalovirus

Cc1ccc(S(=O)(=O)c2nc(S(=O)(=O)NCc3ccccc3)sc2Cl)cc1 — EC50 (viral replication; HFF, AD169): < 50 nM
Cc1nc(NCCNc2ccnc3cc(Cl)ccc23)nc(-c2ccccc2[N+](=O)[O-])c1C(=O)OC(C)C — EC50 (viral replication; HEL, AD-169): > 20000 nM
Nc1nc(O)c2ncn(COC(CO)CO)c2n1 — EC50 (viral cytopathic effect; MRC-5, Davis; 168 h): 7100 nM
Nc1nc(O)c2ncn(COC(CO)CO)c2n1 — EC50 (viral replication; HFF, AD169): 570 ± 390 nM
Cc1nc(NCCCCNc2ccnc3cc(Cl)ccc23)nc(-c2ccccc2[N+](=O)[O-])c1C(=O)OC(C)C — EC50 (viral replication; HEL, Davis): > 4000 nM
CC1(C)CN(C(=O)Cn2c(=O)c(C(=O)NCc3ccc(Cl)cc3)cc3nccnc32)C1 — EC50 (viral replication, GFP reporter; MRC-5, AD169-GFP): 2060 nM
COc1cc[nH]c1/C=C1\C(=O)Nc2ccc([N+](=O)[O-])c(N3CC[C@@H](O)C3)c21 — EC50 (viral yield; HFF, AD169; 96 h): 10 ± 5 nM
Cc1nc(NCCCNc2ccnc3cc(Cl)ccc23)nc(-c2cccc([N+](=O)[O-])c2)c1C(=O)OC(C)C — EC50 (viral replication; HEL, Davis): > 4000 nM
CN1CCN(c2cnc3c(cc(C(=O)NCc4ccc(Cl)cc4)c(=O)n3CC(=O)N3CC(C)(F)C3)n2)C1=O — EC50 (viral cytopathic effect; MRC-5, Davis; 168 h): 200 nM
CC1CCCN(S(=O)(=O)c2nc(-c3ccc(Br)cc3)oc2-c2ccc(Cl)cc2)C1 (stereo not shown) — EC50 (viral replication; HFF, AD169): 5480 nM

Some of these lines once more:
Nc1nc(O)c2ncn(COC(CO)CO)c2n1 — EC50 (viral replication; HFF, AD169): 570 ± 390 nM
